# Published values from different studies.
# Lines come from different studies, so protocols differ. ± gives the spread as reported.
Compound,assay,system,conditions,scale,measurement,result
CC(C)c1nc(N(C)S(C)(=O)=O)nc(-c2ccc(F)cc2)c1/C=C/[C@@H](O)C[C@@H](O)CC(=O)O,,healthy human subjects,"oral, dose not given, study CL-0537 safety set",,incidence of Rash,0%
Cn1nc(NS(C)(=O)=O)c2c(Cl)ccc(-n3c([C@H](Cc4cc(F)cc(F)c4)NC(=O)Cn4nc(C(F)F)c5c4C(F)(F)[C@@H]4C[C@H]54)nc4nc(OCCC(F)(F)F)ccc4c3=O)c21,refers to: total bile acids increased,human,"200 mg, powder in bottle",,drug-related adverse events,0%
COc1cc2c(Oc3ccc4[nH]c(C)cc4c3F)ccnc2cc1OCC1(N)CC1,,paediatric recurrent refractory sarcoma,12 mg,,grade 3 ALT elevation,0%
Cn1c(=O)c2c(ncn2C)n(C)c1=O,PAMPA,,"200 µM, 5 h, pH 7.4",,membrane retention,11.4%
CC(C)[C@@H]1NC(=O)CNC(=O)[C@H](CC(N)=O)NC(=O)[C@H](CCCNC(=N)N)NC(=O)[C@H](Cc2ccc(O)cc2)NC(=O)[C@H](C(C)C)NC(=O)[C@@H](NC(=O)[C@@H](NC(=O)[C@H](CC(N)=O)NC(=O)[C@H](Cc2c[nH]c3ccccc23)NC(=O)[C@H](C)NC(=O)[C@H](Cc2ccccc2)NC(=O)CN)C(C)C)CSSC[C@@H](C(=O)N[C@@H](Cc2c[nH]cn2)C(=O)N[C@@H](CCCNC(=N)N)C(=O)N[C@@H](CCCNC(=N)N)C(=O)N[C@@H](C)C(=O)N[C@@H](CC(N)=O)C(N)=O)NC(=O)[C@H](C(C)C)NC(=O)[C@H](CCCNC(=N)N)NC1=O,"circular dichroism, refers to: Random-coil",PBS,"80 µM, pH 7.4, with: LPS 1 µM",,secondary structure content,33.2%
CCNCCCNC/C=C\CNCCCNCC,,"human, advanced solid tumours","intravenous, dose not given",baseline: patients,"drug-related TEAE, skin disorders",10.9%
CN1CCN(S(=O)(=O)c2cc([N+](=O)[O-])ccc2N(CCOS(C)(=O)=O)CCOS(C)(=O)=O)CC1,,"naive NSG mice, plasma","intraperitoneal, 25 mg/kg",,apparent clearance CL/F,7.48 (mg/kg)/(µmol/L)/h
CC(=O)NCC(=O)NCC(=O)N[C@H](C(=O)N[C@@H](Cc1ccc(O)cc1)C(=O)N[C@@H](CO)C(=O)N[C@H]1CSSC[C@@H](C(=O)N[C@@H](CCCNC(=N)N)C(=O)N2CCC[C@H]2C(=O)N[C@@H](CCC(N)=O)C(=O)N[C@@H](CCCNC(=N)N)C(=O)NCC(=O)NCCC(=O)N[C@@H](CCCCNC(=O)CN(CC(=O)NCCCC[C@H](NC(=O)CCNC(=O)CNC(=O)[C@H](CCCNC(=N)N)NC(=O)[C@H](CCC(N)=O)NC(=O)[C@@H]2CCCN2C(=O)[C@H](CCCNC(=N)N)NC(=O)[C@@H]2CSSC[C@H](NC(=O)[C@H](CO)NC(=O)[C@H](Cc3ccc(O)cc3)NC(=O)[C@@H](NC(=O)CNC(=O)CNC(C)=O)[C@@H](C)O)C(=O)N[C@@H](Cc3c[nH]cn3)C(=O)N[C@@H](Cc3ccccc3)C(=O)NCC(=O)N[C@@H](C)C(=O)N[C@@H](CC(C)C)C(=O)N[C@@H]([C@@H](C)O)C(=O)N[C@@H](Cc3c[nH]c4ccccc34)C(=O)N[C@@H](C(C)C)C(=O)N2)C(N)=O)C(=O)CCN)C(N)=O)NC(=O)[C@H](C(C)C)NC(=O)[C@H](Cc2c[nH]c3ccccc23)NC(=O)[C@H]([C@@H](C)O)NC(=O)[C@H](CC(C)C)NC(=O)[C@H](C)NC(=O)CNC(=O)[C@H](Cc2ccccc2)NC(=O)[C@H](Cc2c[nH]cn2)NC1=O)[C@@H](C)O,MSD immunoassay,"BALB/c mice, healthy female, serum","subcutaneous, 0.08 mg/kg, 48 h, LLOQ 2.0 ng/mL",,serum concentration,not detected
Clc1cc2c(cc1Cl)Oc1c(ccc(Cl)c1Cl)O2,,whole cow milk,2000 nM nominal,,dose fraction in milk fat,86.7%
CC(=O)c1c(C)c2cnc(Nc3ccc(C4CCN(CCS(C)(=O)=O)CC4)cn3)nc2n(C2CCCC2)c1=O,,"human patients, plasma","oral, 75 mg twice daily, day 1 single dose, with: fulvestrant",,mean residence time,5.29 h
C[C@@H]1NC(=O)[C@H](CCCCNC(=O)CO/N=C/C(=O)NCCCC[C@@H]2NC(=O)[C@@H](Cc3ccccc3)NC(=O)[C@H](CC(=O)O)NC(=O)CNC(=O)[C@H](CCCNC(=N)N)NC2=O)NC(=O)CNC(=O)[C@@H]2CCCN2C(=O)[C@H](CCCCNC(=O)CO/N=C/C(=O)NCCCC[C@@H]2NC(=O)[C@@H](Cc3ccccc3)NC(=O)[C@H](CC(=O)O)NC(=O)CNC(=O)[C@H](CCCNC(=N)N)NC2=O)NC(=O)[C@H](CCCCNC(=O)CCNC(=O)CCNC(=O)CCNC(=O)[C@H](CCCCN)NC(=O)[C@H](Cc2ccccc2)NC(=O)CNC(=O)CN2CCCNCCNCCCNCC2)NC(=O)[C@H](CCCCNC(=O)CO/N=C/C(=O)NCCCC[C@@H]2NC(=O)[C@@H](Cc3ccccc3)NC(=O)[C@H](CC(=O)O)NC(=O)CNC(=O)[C@H](CCCNC(=N)N)NC2=O)NC(=O)CNC(=O)[C@@H]2CCCN2C(=O)[C@H](CCCCNC(=O)CO/N=C/C(=O)NCCCC[C@@H]2NC(=O)[C@@H](Cc3ccccc3)NC(=O)[C@H](CC(=O)O)NC(=O)CNC(=O)[C@H](CCCNC(=N)N)NC2=O)NC1=O [copper-64 labelled],,"normal mice, heart","intravenous, 0.74 MBq, 24 h post-injection",,tissue uptake,1.13 ± 0.13 %ID/g
COc1ncccc1-c1cnn2ccc(N3CCN(C(=O)OC(C)C)CC3)nc12,,"mouse nerve ligation model, brain","oral, 10 mg/kg, 180 min after last dose, repeat dosing day 1",,drug concentration,6.1 µM
CN(C(=O)n1cnc(-c2ccc[n+]([O-])c2)c1)C1CCCCC1,,"Wistar rat, pons","oral, 10 mg/kg/day, 48 h, repeated 5 days",,concentration,14.2 ± 1.4 ng/g
C=C(CN(C(=O)c1c(C(F)F)nn(C)c1F)C1CC1)c1ccc(Cl)cc1Cl,static acute toxicity test,zebrafish (Brachydanio rerio),"0.694 mg a.i./L, 96 h",,mortality,10%

# For quick reference, copied from above:
Compound,assay,system,conditions,scale,measurement,result
CC(C)[C@@H]1NC(=O)CNC(=O)[C@H](CC(N)=O)NC(=O)[C@H](CCCNC(=N)N)NC(=O)[C@H](Cc2ccc(O)cc2)NC(=O)[C@H](C(C)C)NC(=O)[C@@H](NC(=O)[C@@H](NC(=O)[C@H](CC(N)=O)NC(=O)[C@H](Cc2c[nH]c3ccccc23)NC(=O)[C@H](C)NC(=O)[C@H](Cc2ccccc2)NC(=O)CN)C(C)C)CSSC[C@@H](C(=O)N[C@@H](Cc2c[nH]cn2)C(=O)N[C@@H](CCCNC(=N)N)C(=O)N[C@@H](CCCNC(=N)N)C(=O)N[C@@H](C)C(=O)N[C@@H](CC(N)=O)C(N)=O)NC(=O)[C@H](C(C)C)NC(=O)[C@H](CCCNC(=N)N)NC1=O,"circular dichroism, refers to: Random-coil",PBS,"80 µM, pH 7.4, with: LPS 1 µM",,secondary structure content,33.2%
